# Measurements from different studies.
# Lines come from different studies, so protocols differ.
# Organism: Enterococcus faecalis
Compound,test,system,setting,MIC
CN[C@@H]1[C@H](O)[C@H](NC)[C@H]2O[C@]3(O)[C@H](O[C@@H]2[C@H]1O)O[C@H](C)C[C@H]3NC(=O)Cc1cscn1,"microbial growth, broth dilution",ATCC33186,,50 µg/mL
CC(C)[C@H](NC(=O)[C@H](Cc1ccc(O)cc1)NC(=O)[C@H](CS)NC(=O)[C@@H](NC(=O)[C@H](CCCNC(=N)N)NC(=O)[C@H](Cc1ccccc1)NC(=O)[C@H](CS)NC(=O)[C@H](Cc1c[nH]c2ccccc12)NC(=O)[C@@H](N)CCCNC(=N)N)C(C)C)C(=O)NCC(=O)N[C@@H](Cc1ccccc1)C(=O)N[C@@H](CS)C(=O)N[C@@H](Cc1ccc(O)cc1)C(=O)N[C@@H](Cc1c[nH]c2ccccc12)C(=O)N[C@@H](CCCCN)C(=O)N[C@@H](CS)C(=O)N[C@@H](CCCNC(=N)N)C(=O)O,,ATCC 29212,,4.39 µg/mL
CC[C@H](C)[C@H](N)C(=O)N[C@@H](CCCNC(=N)N)C(=O)N[C@H](C(=O)N[C@@H](Cc1c[nH]c2ccccc12)C(=O)N[C@@H](Cc1ccccc1)C(=O)N[C@H](C(=O)N[C@@H](CCCCN)C(=O)N[C@H](C(=O)N[C@@H](CCCNC(=N)N)C(=O)N[C@@H](CCCCN)C(=O)N[C@@H](CCSC)C(=O)N[C@@H](CCCCN)C(=O)N[C@@H](C)C(=O)N[C@H](C(=O)N[C@@H](Cc1ccc(O)cc1)C(=O)N[C@@H](Cc1c[nH]cn1)C(=O)N[C@H](C(N)=O)[C@@H](C)O)[C@@H](C)CC)C(C)C)[C@@H](C)CC)C(C)C,broth dilution,KCTC 3511,,100 µM
C#CCOc1ccc(CN[C@@]2(C)C[C@H](O[C@H]3[C@H](Oc4c5cc6cc4Oc4ccc(cc4Cl)[C@@H](O)[C@@H](NC(=O)[C@@H](CC(C)C)NC)C(=O)N[C@@H](CC(N)=O)C(=O)N[C@H]6C(=O)N[C@H]4C(=O)N[C@H](C(=O)N[C@H](C(=O)O)c6cc(O)cc(O)c6-c6cc4ccc6O)[C@H](O)c4ccc(c(Cl)c4)O5)O[C@H](CO)[C@@H](O)[C@@H]3O)O[C@@H](C)[C@H]2O)cc1OC,broth microdilution,"vancomycin-resistant, tryptic soy broth","20 to 24 h, 37 °C, 0.002% polysorbate 80",32 µg/mL
CN[C@@H]1[C@H](O)[C@H](NC)[C@H]2O[C@]3(O)[C@H](O[C@@H]2[C@H]1O)O[C@H](C)C[C@H]3NC(=O)Cc1ccccc1,"microbial growth, broth dilution",ATCC33186,,> 200 µg/mL
CN[C@H](CC(C)C)C(=O)N[C@H]1C(=O)N[C@@H](CC(N)=O)C(=O)N[C@H]2C(=O)N[C@H]3C(=O)N[C@H](C(=O)N[C@H](C(=O)O)c4cc(O)cc(O)c4-c4cc3ccc4O)[C@H](O)c3ccc(c(Cl)c3)Oc3cc2cc(c3O[C@@H]2O[C@H](CO)[C@@H](O)[C@H](O)[C@H]2O[C@H]2C[C@](C)(NCc3ccc(OCc4cn(CC(=O)N[C@H](C(=O)N[C@@H](CCN)C(=O)N[C@H]5CCNC(=O)[C@H]([C@@H](C)O)NC(=O)[C@H](CCN)NC(=O)[C@H](CCN)NC(=O)[C@H](CC(C)C)NC(=O)[C@@H](CC(C)C)NC(=O)[C@H](CCN)NC5=O)[C@@H](C)O)nn4)c(OC)c3)[C@H](O)[C@H](C)O2)Oc2ccc(cc2Cl)[C@H]1O,broth microdilution,vancomycin-resistant,,24 µM
CN[C@@H]1[C@H](O)[C@H](NC)[C@H]2O[C@]3(O)[C@H](O[C@@H]2[C@H]1O)O[C@H](C)C[C@H]3NC(=O)Cc1ccc(Cl)cn1,"microbial growth, broth dilution",ATCC33186,,25 µg/mL
CN[C@H](CC(C)C)C(=O)N[C@H]1C(=O)N[C@@H](CC(N)=O)C(=O)N[C@H]2C(=O)N[C@H]3C(=O)N[C@H](C(=O)N[C@H](C(=O)O)c4cc(O)cc(O)c4-c4cc3ccc4O)[C@H](O)c3ccc(c(Cl)c3)Oc3cc2cc(c3O[C@@H]2O[C@H](CO)[C@@H](O)[C@H](O)[C@H]2O[C@H]2C[C@](C)(NCc3ccc(OCc4cn(CCCCC(=O)N[C@H](C(=O)N[C@@H](CCN)C(=O)N[C@H]5CCNC(=O)[C@H]([C@@H](C)O)NC(=O)[C@H](CCN)NC(=O)[C@H](CCN)NC(=O)[C@H](CC(C)C)NC(=O)[C@@H](CC(C)C)NC(=O)[C@H](CCN)NC5=O)[C@@H](C)O)nn4)c(OC)c3)[C@H](O)[C@H](C)O2)Oc2ccc(cc2Cl)[C@H]1O,broth microdilution,vancomycin-resistant,,48 µM
CC[C@H](C)[C@H](NC(=O)[C@H](Cc1c[nH]c2ccccc12)NC(=O)[C@H](Cc1ccc(O)cc1)NC(=O)[C@H](CCCCN)NC(=O)[C@H](CC(C)C)NC(=O)[C@H](CO)NC(=O)[C@@H](N)Cc1ccccc1)C(=O)N[C@@H](CCCNC(=N)N)C(=O)N[C@@H](Cc1ccc(O)cc1)C(=O)N[C@@H](CCCCN)C(=O)N[C@@H](CCCNC(=N)N)C(=O)N[C@@H](CCC(N)=O)C(=O)NCC(=O)N[C@@H](C)C(=O)N[C@@H](C)C(=O)N[C@@H](CCCNC(=N)N)C(=O)N[C@@H](Cc1ccccc1)C(N)=O,broth dilution,KCTC 3511,,> 100 µM
CC[C@H](C)[C@H](NC(=O)CNC(=O)[C@@H](NC(=O)CNC(=O)[C@@H](NC(=O)CNC(=O)[C@@H](NC(=O)[C@@H](NC(=O)[C@H](CCC(N)=O)NC(=O)[C@H](CCC(=O)O)NC(=O)[C@@H](NC(=O)[C@H](CC(C)C)NC(=O)[C@H](CCCNC(=N)N)NC(=O)[C@H](Cc1ccccc1)NC(=O)[C@@H](NC(=O)[C@H](CC(N)=O)NC(=O)[C@H](CCCCN)NC(=O)CNC(=O)[C@H](CCSC)NC(=O)[C@H](CCCCN)NC(=O)CNC(=O)[C@H](CC(C)C)NC(=O)[C@H](CCCCN)NC(=O)[C@H](CCCCN)NC(=O)CNC(=O)[C@H](Cc1ccccc1)NC(=O)[C@H](CCCCN)NC(=O)[C@H](CCCCN)NC(=O)[C@H](CC(C)C)NC(=O)[C@H](Cc1c[nH]c2ccccc12)NC(=O)CN)C(C)C)C(C)C)C(C)C)C(C)C)C(C)C)C(C)C)C(=O)N[C@@H](CC(N)=O)C(=O)N[C@@H](C)C(=O)N[C@@H](CC(C)C)C(=O)N[C@@H](CO)C(=O)O,,ATCC 29212,,17.6 µg/mL
CN[C@H](CC(C)C)C(=O)N[C@H]1C(=O)N[C@@H](CC(N)=O)C(=O)N[C@H]2C(=O)N[C@H]3C(=O)N[C@H](C(=O)N[C@H](C(=O)NCc4cn(CCCCC(=O)N[C@H](C(=O)N[C@@H](CCN)C(=O)N[C@H]5CCNC(=O)[C@H]([C@@H](C)O)NC(=O)[C@H](CCN)NC(=O)[C@H](CCN)NC(=O)[C@H](CC(C)C)NC(=O)[C@@H](CC(C)C)NC(=O)[C@H](CCN)NC5=O)[C@@H](C)O)nn4)c4cc(O)cc(O)c4-c4cc3ccc4O)[C@H](O)c3ccc(c(Cl)c3)Oc3cc2cc(c3O[C@@H]2O[C@H](CO)[C@@H](O)[C@H](O)[C@H]2O[C@H]2C[C@](C)(N)[C@H](O)[C@H](C)O2)Oc2ccc(cc2Cl)[C@H]1O,broth microdilution,"vancomycin-resistant, tryptic soy broth","20 to 24 h, 37 °C, 0.002% polysorbate 80",64 µg/mL
COc1cccc(OC)c1C(=O)N[C@@H]1C(=O)N2[C@@H]1SC(C)(C)[C@@H]2C(=O)O,,clinical isolate,"18 to 20 h, 37 °C",128 µM

# For quick reference, copied from above:
Compound,test,system,setting,MIC
CN[C@H](CC(C)C)C(=O)N[C@H]1C(=O)N[C@@H](CC(N)=O)C(=O)N[C@H]2C(=O)N[C@H]3C(=O)N[C@H](C(=O)N[C@H](C(=O)O)c4cc(O)cc(O)c4-c4cc3ccc4O)[C@H](O)c3ccc(c(Cl)c3)Oc3cc2cc(c3O[C@@H]2O[C@H](CO)[C@@H](O)[C@H](O)[C@H]2O[C@H]2C[C@](C)(NCc3ccc(OCc4cn(CC(=O)N[C@H](C(=O)N[C@@H](CCN)C(=O)N[C@H]5CCNC(=O)[C@H]([C@@H](C)O)NC(=O)[C@H](CCN)NC(=O)[C@H](CCN)NC(=O)[C@H](CC(C)C)NC(=O)[C@@H](CC(C)C)NC(=O)[C@H](CCN)NC5=O)[C@@H](C)O)nn4)c(OC)c3)[C@H](O)[C@H](C)O2)Oc2ccc(cc2Cl)[C@H]1O,broth microdilution,vancomycin-resistant,,24 µM
CN[C@@H]1[C@H](O)[C@H](NC)[C@H]2O[C@]3(O)[C@H](O[C@@H]2[C@H]1O)O[C@H](C)C[C@H]3NC(=O)Cc1ccc(Cl)cn1,"microbial growth, broth dilution",ATCC33186,,25 µg/mL
